Published values collected from several papers.
Every numbered part comes from another study and shows a few of its results, in no order.

Block 1
Target: Prothrombin, mature alpha-thrombin (F2, Homo sapiens, UniProt P00734)
Technique: aptamer microarray, sandwich
Form: DNA with 2'F-ANA
Matrix: in vitro
Tested at: 200 nM
Notes: whole 15-mer aptamer, many near background
Together with: Cy3 exosite-II aptamer, 400 nM
Reading: higher = stronger binding
Sequence: GGTTGGTGTGGTTGG
| Modification | mean fluorescence intensity |
| --- | --- |
| 2'F-ANA at 3 7 9 10 | 690 a.u. |
| 2'F-ANA at 1 5 7 8 10 13 14 | 59 a.u. |
| 2'F-ANA at 1 2 3 4 5 9 12 13 14 | 42.9 a.u. |
| 2'F-ANA at 2 5 8 9 10 12 | 63.7 a.u. |
| 2'F-ANA at 3 4 9 11 12 15 | 678 a.u. |

Block 2
Target: Histone acetyltransferase KAT6A, both winged helices, GST fusion (KAT6A, Homo sapiens, UniProt Q92794, residues 1-181)
Technique: protein binding microarray
Form: double-stranded DNA, one strand shown
Matrix: in vitro
Tested at: not given
Notes: 8-mer, flanks averaged, mean of 2 arrays, mostly near background
Reference: not given
Reading: higher = stronger binding
Construct (chain): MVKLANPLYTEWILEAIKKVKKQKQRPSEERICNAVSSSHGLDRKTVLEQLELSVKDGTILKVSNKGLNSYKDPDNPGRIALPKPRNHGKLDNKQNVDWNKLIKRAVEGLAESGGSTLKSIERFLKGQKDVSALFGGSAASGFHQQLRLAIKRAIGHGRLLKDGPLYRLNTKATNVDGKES
| Sequence | E-score |
| --- | --- |
| CTACGACA | -0.0562 |
| CGGTCACA | 0.121 |
| AAGACCCA | -0.161 |
| AAATACCG | 0.0873 |

Block 3
Target: PABPC1L2, full length, GST fusion (mouse, UniProt A0ABA7IW68)
Technique: RNAcompete
Form: RNA
Matrix: in vitro
Tested at: 20 nM
Notes: 7-mer, probes averaged, single round
Reference: mean of 7-mers
Reading: higher = stronger binding
Construct (chain): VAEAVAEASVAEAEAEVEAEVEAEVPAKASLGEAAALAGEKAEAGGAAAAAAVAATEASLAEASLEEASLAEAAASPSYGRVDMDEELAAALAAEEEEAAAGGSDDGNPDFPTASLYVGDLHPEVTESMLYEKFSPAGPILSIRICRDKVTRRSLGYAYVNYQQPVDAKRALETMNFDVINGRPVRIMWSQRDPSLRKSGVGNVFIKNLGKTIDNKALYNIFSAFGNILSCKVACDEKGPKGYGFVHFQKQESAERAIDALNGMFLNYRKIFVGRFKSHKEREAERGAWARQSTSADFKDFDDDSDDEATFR
| Sequence | 7-mer Z-score |
| --- | --- |
| UCAUUGG | -0.0699 |
| UUACCAC | -0.166 |
| UGUUGGA | -0.231 |
| UAGCGGA | 0.0189 |
| GCGCAAG | -0.249 |
| AGAUGGC | -0.24 |
| UCCCUGU | -0.347 |

Other studies, line by line
| Molecule | target | assay | test system | setting | scale | measurement | result |
| --- | --- | --- | --- | --- | --- | --- | --- |
| PhoQ, residues 284 288 289 292 302 303 SCEHLI | PhoP, residues 12 14 15 18 19 NHTVL (Escherichia coli, UniProt P23836) | Sort-seq, item: YFP reporter | E. coli | PhoQ-PhoP variant library, together with: 10 µM Mg2+ | reference: high Mg2+ state, higher = stronger signaling | fold induction | 6.29 |

A few entries again (block 3):
| Sequence | 7-mer Z-score |
| --- | --- |
| UGUUGGA | -0.231 |
